Experimental data from different studies.
Numbered parts are unrelated; each lists some results of a single study. Substitutions count along the parent as printed.

Block 1 — target: CCNA1, cyclin fold, Cln2 fusion (human); method: yeast growth competition, sequencing; medium: yeast; notes: weak parent motif; relative to: not given; reading: higher = stronger binding; measurement: normalised enrichment score
Parent: PKN2 docking peptide (human); VSAVQKLDFSDTM
D8N: -0.0194
T12N: 0.11
V1A: 0.158
K6M: 0.386

Block 2 — method: EMSA with sequencing; molecule type: double-stranded DNA, one strand shown; medium: in vitro; tested at: 10 and 20 nM; relative to: negative control set to 0; reading: higher = stronger binding; measurement: normalised bound fraction
Target: Hepatocyte nuclear factor 3-alpha (Foxa1, Mus musculus, UniProt P35582, residues 1-468, full length assumed)
Notes: whole designed probe, mean of two concentrations, ends assumed
All sequences stand within: GTGAGCGGTGCCCATTGATGGGGAAC … TTTCACTGGGATCGTGGGGAC
Residues (chain): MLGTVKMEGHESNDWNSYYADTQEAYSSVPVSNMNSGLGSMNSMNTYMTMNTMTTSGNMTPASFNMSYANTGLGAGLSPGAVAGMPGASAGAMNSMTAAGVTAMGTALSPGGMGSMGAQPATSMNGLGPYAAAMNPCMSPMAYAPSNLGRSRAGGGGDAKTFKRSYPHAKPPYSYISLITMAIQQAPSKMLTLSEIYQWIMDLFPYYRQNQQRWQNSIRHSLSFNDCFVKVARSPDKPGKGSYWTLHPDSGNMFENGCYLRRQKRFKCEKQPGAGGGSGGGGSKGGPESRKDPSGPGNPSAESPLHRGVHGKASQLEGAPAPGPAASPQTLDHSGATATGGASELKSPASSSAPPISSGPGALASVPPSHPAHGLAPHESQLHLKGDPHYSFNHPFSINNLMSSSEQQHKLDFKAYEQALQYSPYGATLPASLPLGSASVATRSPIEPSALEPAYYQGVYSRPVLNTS
TCTACACCAATGTCACACTGCCAAATCTCAAAGAAGATTTGGTTGTCACCACTTAAATCCCCTCATGAATGTTCTGGAAAAACTCCCTGCCCTAGATGACATAGCCTCTCTGCATAAAACTCCTATCATATTCCCACTCCTAAATGTCTCCAAAGCCAACTTTGTCACTTACTGATTAATACCTACCATCTCC: -0.0822 ratio
ATCTTCCCCCTCTTCCTTGCCCCACCAGCTCACCTTCCCGGGTTATTTGCAGATAGGAAAATAAATAAAGCCGGCATTCGTTAACCCTCTTCTGGCGCAAACTGCTGTTTGCTCTGGATGAATCATGGTCCTTTGGCGACGCCGGGAGCGTAAGCCACGGACAACCGTGTCAGGGCCATGATCCGGGGTGGCC: 0.351 ratio
AGGGACACTCAGAGAGTGAGGGAAGAAGGCTCTGAAGATCTCACTACTGCAGAGCAAACAGCTCCATAGAGAGATCTTCCTCACCCCAGAGAATGTTTACTCTATTAAATGTTAGAAGAGCATGTGTAAATAGCAAGCTTATTTAGTTTTCAGTTCCACCTCCCTTGGAAAGGAAAAGTGATACAATCATCTT: 0.377 ratio
GTGTGCTAGCCTGTGAGTTTTTCTCTCCAACTAGCCTGGGTACTCAGGAAAGTGAGATCAACTTCTTTGGGTGTAGCGGGTGGCCTGACCTGTGCAAATAGGGGAGACAGTTGACATACAGATGAAAGGGGAGATGGGAAGCCATACAGAGGAAGGAGAAGATCAGGAACCAGAGATAAGATAATTCTGTAAA: 0.109 ratio
ATGTGCTAAAAATACAAGACTTGCTTACGCAGAGAGCCGGGAGCTATGTTCCAGTGAGGGTGGAAACAAAAGCCTCAGTATAAGACTGTCAGGTGTTTACACTTGCTCATGTAAGGGTGTGGTGGCAACACGAGGTTGCTGGACTCCACATGCTGAGGCTCAAAGTAGAAATCACTGATCTTATGTCACATAT: 0.221 ratio
CCCACCCCCTCCAAAAGAAGCACTTTACTTATGTACTCACATATTTTCGGTTTCTGTGGCTGTGTTACTGGGTAGCTGTCCAGTTGAGACGAGATGTTTACTTAAGCCACACCCAGCAGAGTCAGCTTTTAATGTGTTGGGGGCACTATTTTAATCCTGTGCTGATTTGTAACCATCATCTATGGGATGCCTT: 0.465 ratio

Block 3 — method: protein binding microarray; molecule type: double-stranded DNA, one strand shown; medium: in vitro; tested at: not given; relative to: not given; reading: higher = stronger binding; measurement: E-score
Target: Histone acetyltransferase KAT6A, winged helix 2, GST fusion (KAT6A, Homo sapiens, UniProt Q92794, residues 85-181)
Notes: 8-mer, flanks averaged, mean of 2 arrays, mostly near background
Construct (chain): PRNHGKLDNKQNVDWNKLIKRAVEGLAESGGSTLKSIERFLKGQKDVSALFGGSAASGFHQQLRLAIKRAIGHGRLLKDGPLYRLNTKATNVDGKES
CGGATAAG: -0.0133
GGGACATA: -0.0848
ACAGGCGA: 0.129
ATACCCGG: 0.119
CAGCAGTC: -0.0258
ACTAGGTA: -0.113

Single results of other studies
PhoQ, residues 284 288 289 292 302 303 ALAMYF — fold induction (PhoP, residues 12 14 15 18 19 DLLYY (Escherichia coli, UniProt P23836); Sort-seq, item: YFP reporter; E. coli; PhoQ-PhoP variant library, with: 10 µM Mg2+; relative to: high Mg2+ state, higher = stronger signaling): 1.22

Some of these lines once more (block 2):
ATCTTCCCCCTCTTCCTTGCCCCACCAGCTCACCTTCCCGGGTTATTTGCAGATAGGAAAATAAATAAAGCCGGCATTCGTTAACCCTCTTCTGGCGCAAACTGCTGTTTGCTCTGGATGAATCATGGTCCTTTGGCGACGCCGGGAGCGTAAGCCACGGACAACCGTGTCAGGGCCATGATCCGGGGTGGCC: 0.351 ratio
TCTACACCAATGTCACACTGCCAAATCTCAAAGAAGATTTGGTTGTCACCACTTAAATCCCCTCATGAATGTTCTGGAAAAACTCCCTGCCCTAGATGACATAGCCTCTCTGCATAAAACTCCTATCATATTCCCACTCCTAAATGTCTCCAAAGCCAACTTTGTCACTTACTGATTAATACCTACCATCTCC: -0.0822 ratio
CCCACCCCCTCCAAAAGAAGCACTTTACTTATGTACTCACATATTTTCGGTTTCTGTGGCTGTGTTACTGGGTAGCTGTCCAGTTGAGACGAGATGTTTACTTAAGCCACACCCAGCAGAGTCAGCTTTTAATGTGTTGGGGGCACTATTTTAATCCTGTGCTGATTTGTAACCATCATCTATGGGATGCCTT: 0.465 ratio
